Results of several laboratories.
Each numbered part is a random draw from the data of one study; scales do not carry over between parts.

Series 1 — method: aptamer microarray, sandwich; molecule type: DNA with 2'F-ANA; sample: in vitro; concentration: 200 nM; with: Cy3 exosite-II aptamer, 400 nM; reading: higher = stronger binding; oligonucleotide: GGTTGGTGTGGTTGG
Target: Prothrombin, mature alpha-thrombin (F2, Homo sapiens, UniProt P00734)
Setting: whole 15-mer aptamer, many near background
Modification	mean fluorescence intensity [a.u.]
2'F-ANA at 2 4 6 7 9 10 12	147
2'F-ANA at 1 2 3 5 6 7 8 12 13 14	50.2
2'F-ANA at 1 2 3 4 8 9 12 14	88.9
2'F-ANA at 1 2 3 4 6 8 9 10 11 12 14	183
2'F-ANA at 1 3 4 6 7 8 10 15	66
2'F-ANA at 5 6 8 9 11 12 13 14	48.2
2'F-ANA at 1 2 6 7 8 11 12 13 15	236
2'F-ANA at 4 5 6 8 10 12	49.5
2'F-ANA at 5 7 8 9 10 15	53.1
2'F-ANA at 2 3 5 7 11 12 13 14	57
2'F-ANA at 2 4 5 10 13 14	46.3
2'F-ANA at 2 3 4 6 9 10	228
2'F-ANA at 3 5 6 8 11 12 13 15	158
2'F-ANA at 1 2 4 5 6 8 10 11 14 15	50
2'F-ANA at 2 3 4 5 6 7 10 12 15	52.3
2'F-ANA at 2 4 5 6 8 15	145
2'F-ANA at 6 7 8 9 11 12 13	619
2'F-ANA at 2 3 4 5 7 9 10 11 13 14 15	62.5
2'F-ANA at 3 4 5 7 13	67.5
2'F-ANA at 2 4 5 8 9 11 12 14	51.3
2'F-ANA at 2 3 4 5 10 13 15	47.8
2'F-ANA at 1 2 3 6 9 11 14 15	65
2'F-ANA at 1 3 4 5 6 7 8 12 14	50.1
2'F-ANA at 3 4 5 7 8 10 11 12 13 14 15	56.7
2'F-ANA at 1 2 3 4 5 7 8 10 12 14	49.6

Series 2 — method: universal PBM; molecule type: double-stranded DNA, one strand shown; sample: in vitro; concentration: not given; reading: higher = stronger binding
Target: Sal-like protein 4, full length isoform B (SALL4, Homo sapiens, UniProt Q9UJQ4-2, residues 1-616)
Setting: 8-mer, flanks averaged, mean of replicates
Oligonucleotide	E-score
CATGTCCC	-0.114
CAGATGAC	-0.0138
GATAAATC	0.12
ATACACCG	-0.0539
CGGCCGAG	-0.169
GTCGTACA	0.071
ACATAGTG	0.19
ACGGAAGG	-0.223
ATTCTGGC	-0.123
CTTTACCC	0.0404
GGAAACTA	-0.126
AAAGGCAT	0.147
AACTACTG	-0.0786
AGCGTAAG	-0.0974
GTGCGAAC	-0.24
AATTTCTG	0.27

Series 3 — method: RNA Bind-n-Seq; molecule type: RNA; sample: in vitro; concentration: 200 nM; setting: whole 134-nt RNA, ends assumed; with: 150 mM LiCl; reference: input library; reading: higher = stronger binding; library: 7-deaza-guanosine replaces G
Target: Fragile X messenger ribonucleoprotein 1, C-terminal low-complexity region (Fmr1, Mus musculus, UniProt P35922)
Shared flanks, not repeated: GGGAGUUCUACAGUCCGACGAUC … UGGAAUUCUCGGGUGUCAAGG
Oligonucleotide	log2 enrichment
GUCCUGUGCUACACAUCGUAUGUACCGAAUCGGGAAAAAAAGGGAAAAAAAGGGUGGGAAAGUAUUAUGUUACGCCGUUCGGAUCUGCAC	-1.44
UGGCCCUGGUGGCAUGAGGGGAGGAAGAGGUGGCCUCAUGGAUCGUGGUGGUCCCGGUGGAAUGUUCAGAGGUGGCCGUGGUGGAGACAG	0.64
AGUCCUGUGCUACACAUCGUAUGUACCGAAUCAAACCCAAACCCCCAAACCCCCAAAAAAGUAUUAUGUUACGCCGUUCGGAUCUGCACU	-0.0645
AAGUCCUGUGCUACACAUCGUAUGUACCGAAUCGGGGUGGGGUGGGGAAAAAGGGGAAAGUAUUAUGUUACGCCGUUCGGAUCUGCACUU	-1.14
CAAGUCCUGUGCUACACAUCGUAUGUACCGAAUCGGGAAAGGGAAAGGGGAAAGGGAAAGUAUUAUGUUACGCCGUUCGGAUCUGCACUU	-1.04
GCAGGAAGUAAAAACAAAUGGAAAUGCUUCGGAUAGUGGCAGGGGUGGGGGUUGCUAAGGAAAGGGUGGGAUGGGAGAAAGUAAAGAGUU	1.25

Series 4 — method: protein binding microarray; molecule type: double-stranded DNA, one strand shown; sample: in vitro; concentration: not given; reference: not given; reading: higher = stronger binding
Target: Histone acetyltransferase KAT6A, winged helix 2, GST fusion (KAT6A, Homo sapiens, UniProt Q92794, residues 85-181)
Setting: 8-mer, flanks averaged, mean of 2 arrays, mostly near background
Residues (chain): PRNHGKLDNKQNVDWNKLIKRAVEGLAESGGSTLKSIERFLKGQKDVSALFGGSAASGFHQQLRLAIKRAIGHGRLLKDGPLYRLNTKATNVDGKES
Oligonucleotide	E-score
CACTCAGA	0.146
GAGCACCA	-0.00188
GAGCCGCC	0.129
CACAATAA	-0.186
CAAAAGGG	0.103
ACGGAGTC	0.08
ACGTTCGA	-0.172
ACCTAGAT	-0.0772
CCAGTATA	-0.0429
AACCCGAG	0.149
CAACGATG	0.0254
ATTACCAG	-0.00649
GCCGGTAC	0.0306
TGCTTAAA	0.0638
TCAGAGCA	0.047
ACCCACAC	0.0972
CCCGCGCA	0.221
ACGAGTGA	-0.105
CCAGCAGC	-0.0522
GGGTCTTA	-0.19
GCCCGCAC	0.205
CGGGCGCC	0.191
ACTACTGC	-0.188
ACGCCTTA	-0.131

Series 5 — method: RNA Bind-n-Seq; molecule type: RNA; sample: in vitro; concentration: 365 nM; reference: no-protein control; reading: higher = stronger binding
Target: RNA binding protein fox-1 homolog 2, RRM domain, GST-SBP tag (RBFOX2, Homo sapiens, UniProt O43251-10, residues 100-194)
Setting: natural RNA segment, single round, ends assumed
Shared flanks, not repeated: GGGAGUUCUACAGUCCGACGAUC … UGGAAUUCUCGGGUGCCAA
Residues (chain): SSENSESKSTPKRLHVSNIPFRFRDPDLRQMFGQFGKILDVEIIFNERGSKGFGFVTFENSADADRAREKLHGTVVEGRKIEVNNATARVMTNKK
Oligonucleotide	RBNS enrichment (R)
CCACAGGGCAGGGAAGGGGGUGGCUGGGCCUCCUGGCUGGCAAAGGGCUCUACUUAAAGCACAUGAUGUAGAGCAACUCGCCUCUGCCCUGGGUCUGCAGAAGGCUGAGG	2.92
CUUUGUCUCCACCACACAUAGUGUACUUUGGAAGCACAACGUCCAGGCUGGUACCGCAGCGCCAUGCCCAUUCCUCGCCUCAUUCAUAGGACACUUCACUGCCAUUUUCU	0.26
UUAACACUGAUUGUCUAAGAGAUGAAAGUCCUCCAAAGAUGACACAGGAAAAAUACUACAAGUAAUUGUGGUGGAAAUGUCUGUGUUCCUUGGGAAUGCUGCGCUCUCUG	0.163
GGUGUAUGUAGUUGGGCCAUGUUACUUGUCCAGAGGAAGAGACUAAAGAUAUAAGAAUAAUUUUUUAGUCCUAAAUGCUGUUUUGUUUACUUUCUGUCAAGAUAUUUACC	1.78
GGUUUUUGUCGCUUUACAUUGCUUCCUAGUUUACAGCAUGAUGCAAAUGAUUUUCUAACUUAGUGUUAGGAGAAAUUAUUUUCCAUCUUUAACCUCUUAGUUGUCUAAGA	1.92
AAUUACCCUCUCCUUUAUAAGAGCUUUCCUCUUUUAUCUUUUACCUGUAGAGACCUGAAAAUCCCACUUGUUUACCCUAGAAUUCAGUGGCAUUUACUGCUUCUUGAUCU	0.626
CAGGCCCUUGAUGCCAGGACUCUCUCUACUAAGGCCAGUUCAGGUCUGGGAAAGGGAGCUGGCCUAUUGCCCACCACCUGUUGUCAGUAGGUUAGGAGCUGUUGACUCAG	0.328
UGAAAGGCGAGCAGAAGCAGCAUGGACAAGAAGGCUGGGGCUGGCCCUGGGGCUCAUCAUGAUGCUUUCCUGGAUCUGUUGCUUCAUCUGCAAGCUGAGGGUGUUUGUUC	0.335
AAAAGGCCUCUCUUCUCAUCUGGUGCCAAAGGUUCCGUUGCAGCUUUUUACAACCAUCCGGUGUGGUUUGGAGGAUUUGUUUUUUUUUUUUCCCAACAGAAAAGAACAGC	0.363
UGCCAGAUACUUCAAUCUCAGAAUUACUAAGAAUCUGGCAGAAGUCCAGAGAAAAGAAAGUAUAAUUGGAAAAUAAAUGUUACACUGGGGUGAAUCUGAAAAAGGGUGGU	0.568
AUCCUCUUACUCAUUUUAAGACGUAGGAAACUCAAUAUUCUUCUCUAACCAUAUACGAUAGGGCUCUUCGCUUUUAAUGAUAUCUGGGAUUUCUGUGGAACUUGGCAAAU	0.329
CUGGGCUUGUCCACGGCAGGAGGCCCCUGGCCUGUUUAAGCCAUACCGAUGCUUAAUUUACAUUUUUGGAGUUGAAUAUUAUUCCGGUGCCUCCACCACCCCCAGCAGAA	0.401
